Assay results of several laboratories.
Lines come from different studies, so protocols differ. “And” joins repeats or separate records; there may be more than shown. Numbers after ± are the reported error.
Target: Casein kinase I isoform alpha (CSNK1A1, Homo sapiens, UniProt P48729)
Sequence of UniProt P48729 (whole entry, looked up): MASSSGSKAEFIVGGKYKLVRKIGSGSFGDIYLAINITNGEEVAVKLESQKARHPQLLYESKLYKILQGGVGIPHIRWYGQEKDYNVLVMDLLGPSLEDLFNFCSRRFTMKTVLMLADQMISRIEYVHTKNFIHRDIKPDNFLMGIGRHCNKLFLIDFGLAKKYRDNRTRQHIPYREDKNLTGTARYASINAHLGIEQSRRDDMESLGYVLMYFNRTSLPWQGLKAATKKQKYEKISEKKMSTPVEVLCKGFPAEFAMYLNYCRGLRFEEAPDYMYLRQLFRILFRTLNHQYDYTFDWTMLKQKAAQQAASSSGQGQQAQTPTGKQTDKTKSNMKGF

SMILES | test | test system | conditions | scale | measurement | result
c1ccc(Cn2cc(-c3ccnc4ccccc34)c(-c3ccccn3)n2)cc1 | enzyme activity, ADP-Glo |  |  | relative to: IC50 over Yck2 IC50 | selectivity ratio | 6
COc1ccc(F)cc1C(=O)NCc1ccc(-c2nn([C@@H](C)C(F)(F)F)c(N)c2C(N)=O)cc1 | kinase activity, inhibitor, HotSpot radiometric |  | 100 nM, with: ATP 10 µM |  | remaining activity | 69.2 ± 2.7%
c1ccc(-c2occc2-c2ccnc3ccccc23)nc1 | enzyme activity, ADP-Glo |  |  | relative to: IC50 over Yck2 IC50 | selectivity ratio | > 5
Fc1ccc(-c2nc3cc(F)ccn3c2-c2ccncc2)cc1 | kinase activity, inhibitor, ADP-Glo |  | 0.574 µM, 0.5 h |  | remaining activity | 19.6% and 36.6%
C=CC(=O)N1CCC([C@@H]2CCNc3c(C(N)=O)c(-c4ccc(Oc5ccccc5)cc4)nn32)CC1 | kinase activity, inhibitor, HotSpot radiometric |  | 100 nM, with: ATP 10 µM |  | remaining activity | 106%
CC[C@@H]1[C@H](F)C(=O)N[C@@H]1COc1nccc2cc(C(N)=O)c(OC)cc12 | ATP probe binding, KiNativ profiling, measured: Lys2 probe site | THP-1 cell lysate | 0.04 mM |  | inhibition | -2.5%
COc1cc(-c2cncc3c2CN(C)Cc2cc(N4CCNCC4)ccc2-3)cc(OC)c1OC | kinase activity |  | 1 µM, human enzyme, with: ATP 10 µM | relative to: DMSO control | remaining activity | 95%
CC#CC(=O)N1CCC[C@H]1c1nc(-c2ccc(C(=O)Nc3ccccn3)cc2)c2c(N)nccn12 | kinase activity, inhibitor, HotSpot radiometric |  | 100 nM, with: ATP 10 µM |  | remaining activity | 102 ± 2.3%
c1ccc(Cc2[nH]nc(-c3ccccn3)c2-c2ccnc3ccccc23)cc1 | enzyme activity, ADP-Glo |  |  | relative to: IC50 over Yck2 IC50 | selectivity ratio | 1
Fc1ccc(-c2nn3cc(F)ccc3c2-c2ccncc2)cc1 | kinase activity, inhibitor, ADP-Glo |  | 0.273 µM, 0.5 h |  | remaining activity | 67.7% and 62.8%

Some of these lines once more:
SMILES | test | test system | conditions | scale | measurement | result
CC#CC(=O)N1CCC[C@H]1c1nc(-c2ccc(C(=O)Nc3ccccn3)cc2)c2c(N)nccn12 | kinase activity, inhibitor, HotSpot radiometric |  | 100 nM, with: ATP 10 µM |  | remaining activity | 102 ± 2.3%
Fc1ccc(-c2nn3cc(F)ccc3c2-c2ccncc2)cc1 | kinase activity, inhibitor, ADP-Glo |  | 0.273 µM, 0.5 h |  | remaining activity | 67.7% and 62.8%
